Values quoted from earlier work that unrelated publications cite.
Each numbered part shows a few of the values that one paper quotes.

Sample 1 — Substance: buforin II
For Acinetobacter baumannii; ATCC 19606; literature value: MIC read 50 µM.
For Salmonella typhimurium; SL1344: MIC read over 100 µM.
The MIC was 50 µM (Enterobacter sp.; KCTC 2625).
Klebsiella pneumoniae; ATCC 700603; literature value — MIC: over 100 µM.
It gave 12.5 µM for MIC (Escherichia coli; ATCC 25922; literature value).

Other studies, line by line
B1: CCL4; sequence looked up; chain APMGSDPPTACCFSYTARKLPRNFVVDYYETSSLCSQPAVVFQTKRSKQVCADPSESWVQEYVYDLELN
B2: CX3CL1, human; sequence looked up; chain QHHGVTKCNITCSKMTSKIPVALLIHYQQNQASCGKRAIILETRQHRLFCADPKEQWVKDAMQHLDRQAAALTRNGGTFEKQIGEVKPRTTPAAGGMDESVVLEPEATGESSSLEPTPSSQEAQRALGTSPELPTGVTGSSGTRLPPTPKAQDGGPVGTELFRVPPVSTAATWQSSAPHQPGPSLWAEAKTSEAPSTQDPSTQASTASSPAPEENAPSEGQRVWGQGQSPRPENSLEREEMGPVPAHTDAFQDWGPGSMAHVSVVPVSSEGTPSREPVASGSWTPKAEEPIHATMDPQRLGVLITPVPDAQAATRRQAVGLLAFLGLLFCLGVAMFTYQSLQGCPRKMAGEMAEGLRYIPRSCGSNSYVLVPV
With `CCL5` the Kd was 5.7 nM (US28 F14A; binding, radioligand competition).
`VTATNAFNCRKERGFCRFGGCPFPLIHIGKCGPA` gave an MIC of 64 µM (Escherichia coli; peptide).
For `CCL3`, the Kd was 12 nM (US28 Y16F; binding, radioligand competition).
`FFFHIIHHIFHLIRRLLHRIRRRRRRHR` gave an MIC of over 128 µM (Staphylococcus aureus; peptide).
Under “level, dose, no toxic effect”, `pegcetacoplan` is recorded as 7 mg/kg/day (cynomolgus monkey; subcutaneous, 28 days, daily, GLP study).
The Kd of `B1 (CCL4)` is reported as 10.2 nM (US28 Y16F; binding, radioligand competition).
The MIC of `GTVLCCETCFLLSCCKIGCTCTRVV` is reported as over 128 µM (Staphylococcus aureus; peptide).
The Kd of `B2 (CX3CL1, human)` is reported as 0.7 nM (US28 D15A; binding, radioligand competition).
The MIC of `GSGCCGQGSCCGRWSGMKNIRVLWCGGCC` is reported as over 128 µM (Staphylococcus aureus; peptide).

Excerpt of the above (other studies, line by line):
Under “level, dose, no toxic effect”, `pegcetacoplan` is recorded as 7 mg/kg/day (cynomolgus monkey; subcutaneous, 28 days, daily, GLP study).
The Kd of `B1 (CCL4)` is reported as 10.2 nM (US28 Y16F; binding, radioligand competition).
